{"data": "Experimental data collected from several papers", "note": "Values joined by “and” are separate records of one study, mostly repeats; a detail may differ. ± gives the spread as reported."}
{"Structure (SMILES)": "N#C[C@@H]1CCCN1C(=O)CNC(=O)c1ccnc2ccc(OCCCN3CCN(C(=O)CCc4ccc(O)c(CN5CCN6CC(=O)[O][Al-]([18F])([O]C(=O)C5)[O]c5ccc(CCC(=O)N7CCN(CCCOc8ccc9nccc(C(=O)NCC(=O)N%10CCC[C@H]%10C#N)c9c8)CC7)cc5C6)c4)CC3)cc12 (stereo partly shown)", "system": "BALB/c nude mice, U-87 MG xenograft, heart", "setting": "1 h", "tissue uptake": "1.97 ± 0.41 %ID/g"}
{"Structure (SMILES)": "CCCC[C@H](NC(=O)COCCOCCNC(=O)CN1CCN(CC(=O)O)CCN(CC(=O)O)CC1)C(=O)N[C@H]1CC(=O)NCCCC[C@@H](C(N)=O)NC(=O)[C@H](Cc2c[nH]c3ccccc23)NC(=O)[C@H](CCCNC(=N)N)NC(=O)[C@@H](Cc2ccccc2)NC(=O)[C@H](Cc2c[nH]cn2)NC1=O [fluorine-18 labelled]", "system": "C57 mice, B16/F10 melanoma, tumor", "setting": "intravenous, 1 h, together with: NDP-MSH 10 µg", "tissue uptake": "0.94 ± 0.16 %ID/g"}
{"Structure (SMILES)": "O=C([O-])CN1CCN(CC(=O)[O-])CCN(CC(=O)NC[C@H]2CC[C@H](C(=O)N[C@H](Cc3cnc4ccccc4c3)C(=O)NCCCC[C@H](NC(=O)N[C@@H](CCC(=O)O)C(=O)O)C(=O)O)CC2)CCN(CC(=O)[O-])CC1.[64Cu+2]", "test": "ex vivo gamma counting", "system": "22Rv1 tumour-bearing mice, liver", "setting": "intravenous, 0.74 MBq, 2 h post-injection", "tissue uptake": "20.6 %ID/g"}
{"Structure (SMILES)": "O=C(NCC1OC2CCC=CCCC2O1)c1ccc([18F])nc1 (stereo not shown)", "system": "healthy female BALB/c nude mice, spleen", "setting": "intravenous, 7.4 MBq per mouse, 10 min", "tissue uptake": "4.9 ± 1.3 %ID/g"}
{"Structure (SMILES)": "CCCC[C@H](NC(=O)CNC(=O)CNC(=O)[C@H](CCCCNC(=O)[C@H](CC(=O)O)NC(=O)C(C)c1ccc(CC(C)C)cc1)NC(=O)CN1CCN(CC(=O)O)CCN(CC(=O)O)CCN(CC(=O)O)CC1)C(=O)N[C@H]1CC(=O)NCCCC[C@@H](C(N)=O)NC(=O)[C@H](Cc2c[nH]c3ccccc23)NC(=O)[C@H](CCCNC(=N)N)NC(=O)[C@@H](Cc2ccccc2)NC(=O)[C@H](Cc2c[nH]cn2)NC1=O (stereo partly shown) [lutetium-177 labelled]", "system": "C57 mice, tumour-bearing, lung", "setting": "intravenous, 0.037 MBq, 0.5 h", "tissue uptake": "4.75 ± 0.8 %ID/g"}
{"Structure (SMILES)": "Cc1cc(C)n(CCN(CCN)CCCCCCNC(=O)[C@@H](N)Cc2c[nH]cn2)n1.[99Tc+].[C-]#[O+].[C-]#[O+].[C-]#[O+]", "system": "BALB/c nude mice, A549 xenograft, tumor", "setting": "intravenous, 4 h", "tissue uptake": "0.91 ± 0.09 %IA/g"}
{"Structure (SMILES)": "COc1ccc2c(c1)C(C)(C)C(/C=C/C1=C(Oc3ccc(C(=O)NCCCCOc4cc(CN(Cc5ccccn5)Cc5ccccn5)cc(CN(Cc5ccccn5)Cc5ccccn5)c4)cc3)C(=C/C=C3/N(CCCCS(=O)(=O)[O-])c4ccc(OC)cc4C3(C)C)CCC1)=[N+]2CCCCS(=O)(=O)[O-].O=[N+]([O-])[O-].O=[N+]([O-])[O-].[99Tc+].[C-]#[O+].[C-]#[O+].[C-]#[O+].[Zn+2]", "system": "BALB/c mice, S. aureus myositis, small intestine with contents", "setting": "12 h post-injection", "tissue uptake": "2.87 %ID/g and 6.97 %ID/g and 3.92 %ID/g and 5.75 %ID/g"}
{"Structure (SMILES)": "Cc1cc(C)n(CCN(CCN)CCCCCCNC(=O)[C@@H](N)Cc2c[nH]c3ccccc23)n1.[99Tc+].[C-]#[O+].[C-]#[O+].[C-]#[O+]", "system": "BALB/c nude mice A549 xenograft, lung", "setting": "intravenous, 15 min", "tissue uptake": "5.08 ± 0.67 %ID/g"}
{"Structure (SMILES)": "CC(C)C[C@H](NC(=O)[C@@H](CCCCNC(=O)[C@@H](Cc1ccccc1)NC(=O)CCCCCCCNC(=O)CN1CCN(CC(=O)O)CCN(CC(=O)O)CCN(CC(=O)O)CC1)NC(=O)[C@H](Cc1ccc(O)cc1)NC(=O)[C@H](CO)NC(=O)[C@H](Cc1c[nH]c2ccccc12)NC(=O)[C@H](Cc1c[nH]cn1)NC(=O)[C@@H]1CCC(=O)N1)C(=O)N[C@@H](CCCNC(=N)N)C(=O)N1CCC[C@H]1C(=O)NCC(N)=O [indium-111 labelled]", "system": "male athymic nude mice, DU-145 prostate cancer xenograft, liver", "setting": "intravenous, dose not given, 1 h, together with: unlabeled blocking peptide 10 µg", "tissue uptake": "0.86 ± 0.22 %ID/g"}
{"Structure (SMILES)": "CCCC[C@H](NC(=O)CNC(=O)CNC(=O)[C@H](CCCCNC(=O)[C@H](CCN)NC(=O)C(C)c1ccc(CC(C)C)cc1)NC(=O)CN1CCN(CC(=O)O)CCN(CC(=O)O)CCN(CC(=O)O)CC1)C(=O)N[C@H]1CC(=O)NCCCC[C@@H](C(N)=O)NC(=O)[C@H](Cc2c[nH]c3ccccc23)NC(=O)[C@H](CCCNC(=N)N)NC(=O)[C@@H](Cc2ccccc2)NC(=O)[C@H](Cc2c[nH]cn2)NC1=O (stereo partly shown) [lutetium-177 labelled]", "system": "C57 mice, tumour-bearing, stomach", "setting": "2 h", "tissue uptake": "0.84 ± 0.27 %ID/g"}
{"Structure (SMILES)": "COc1ccc(Nc2nc(Nc3ccc(OCCOCC[18F])cc3)ncc2Br)cc1", "system": "ICR mice, S180 tumour, liver", "setting": "intravenous, 30 min, together with: PF-562271 33 mg/kg oral 1 h before", "tissue uptake": "2.89 ± 0.52 %ID/g"}
{"Structure (SMILES)": "CCCC[C@H](NC(=O)CNC(=O)CNC(=O)[C@H](CCCCNC(=O)C(C)c1ccc(CC(C)C)cc1)NC(=O)CN1CCN(CC(=O)O)CCN(CC(=O)O)CCN(CC(=O)O)CC1)C(=O)N[C@H]1CC(=O)NCCCC[C@@H](C(N)=O)NC(=O)[C@H](Cc2c[nH]c3ccccc23)NC(=O)[C@H](CCCNC(=N)N)NC(=O)[C@@H](Cc2ccccc2)NC(=O)[C@H](Cc2c[nH]cn2)NC1=O (stereo partly shown) [lutetium-177 labelled]", "system": "C57 mice, tumour-bearing, muscle", "setting": "2 h", "tissue uptake": "0.28 ± 0.12 %ID/g"}
{"Structure (SMILES)": "O=C(NCC1OC2CCC=CCCC2O1)c1ccc(COCCOCCOCC[18F])cc1 (stereo not shown)", "system": "healthy female BALB/c nude mice, lungs", "setting": "intravenous, 7.4 MBq per mouse, 15 min", "tissue uptake": "2.8 ± 0.03 %ID/g"}
{"note": "For quick reference, copied from above:"}
{"Structure (SMILES)": "COc1ccc2c(c1)C(C)(C)C(/C=C/C1=C(Oc3ccc(C(=O)NCCCCOc4cc(CN(Cc5ccccn5)Cc5ccccn5)cc(CN(Cc5ccccn5)Cc5ccccn5)c4)cc3)C(=C/C=C3/N(CCCCS(=O)(=O)[O-])c4ccc(OC)cc4C3(C)C)CCC1)=[N+]2CCCCS(=O)(=O)[O-].O=[N+]([O-])[O-].O=[N+]([O-])[O-].[99Tc+].[C-]#[O+].[C-]#[O+].[C-]#[O+].[Zn+2]", "system": "BALB/c mice, S. aureus myositis, small intestine with contents", "setting": "12 h post-injection", "tissue uptake": "2.87 %ID/g and 6.97 %ID/g and 3.92 %ID/g and 5.75 %ID/g"}
